Assay results collected from several papers.
Compare with care: the assays were run in different laboratories. “And” joins repeats or separate records; there may be more than shown. ± gives the spread as reported. In brackets after ≈: the same amount, converted by molar mass.

| Compound | tested on | assay | system | conditions | how to read | measurement | value |
| --- | --- | --- | --- | --- | --- | --- | --- |
| COc1ccccc1-c1n[nH]c2nc(N[C@H]3CC[C@H](NS(=O)(=O)CC(C)C)CC3)ncc12 |  | bead binding, competition bead pull-down, item: LINJ.32.3470 | Leishmania donovani extract | 10 µM | reference: vehicle | relative abundance | 0.9 |
| CN1CCN(S(=O)(=O)c2ccc(-c3ccc4ncnc(Nc5ccc(OCc6ccccc6)c(Cl)c5)c4c3)cc2)CC1 | Plasmodium falciparum | parasite growth, SYBR Green | D6 | blood stage |  | EC50 | 29 nM |
| CC(C)C[C@@H]1NC(=O)[C@@H](Cc2c[nH]c3ccccc23)NC(=O)[C@H](CCCNC(=N)N)NC(=O)[C@@H](CCC(=O)O)NC(=O)[C@H](CCC(N)=O)NC(=O)[C@@H](CCC(=O)O)NC(=O)[C@H](CCCNC(=N)N)NC(=O)[C@@H](Cc2c[nH]c3ccccc23)NC1=O |  | Luminex, item: IL9 | LDLr-/- mice, Western diet, liver | dose not given, 4 weeks |  | cytokine level | 670 ± 160 pg/g tissue |
| CC1CCC2C(C)C(CCCOC(=O)C(Cc3ccc(N(CCCl)CCCl)cc3)NC(=O)OC(C)(C)C)OC3OC4(C)CCC1C32OO4 (stereo not drawn) | IOSE-144 | cell growth or viability, CCK-8 |  |  |  | IC50 | 15200 nM |
| CN1CCN(S(=O)(=O)c2ccc(-c3ccc4ncnc(Nc5ccc(Cl)cc5)c4c3)cc2)CC1 | Plasmodium falciparum | parasite growth, SYBR Green | D6 | blood stage |  | EC50 | 110 nM |
| Cc1ccc(NS(=O)(=O)c2c(C(=O)N3CCCCCC3)c(C)n(C)c2C)c(Cl)c1 | Fowlpox virus | viral infection | CEF | 0.046 µM | reference: untreated | infection | 107% and 92.7% and 82.7% |
| CC(C)CC(C(=O)N1CC2(CC1C#N)C(=O)Nc1ccccc12)N(C)C(=O)c1cc2c(F)cc(F)c(F)c2[nH]1 (stereo not drawn) | Human coronavirus 229E | cytopathic effect | MRC5 | 69 pM |  | inhibition | -0.113% |
| CCOC(=O)C1(Cc2ccc(OC)cc2)Oc2cc(F)ccc2N(Cc2ccc(OC)cc2)C1=O (stereo not drawn) | Arabidopsis thaliana | root length, petri dish germination | Col-0, 1/2 MS medium | 200 µg/mL, 7 days, 22 °C, dark |  | inhibition | 78.9% |
| CC[C@H](C)CCCCC(=O)N[C@@H](CCN)C(=O)N[C@H](C(=O)N[C@@H](CCN)C(=O)N[C@H]1CCNC(=O)[C@H]([C@@H](C)O)NC(=O)[C@H](CCN)NC(=O)[C@H](CCN)NC(=O)[C@H](CC(C)C)NC(=O)[C@@H](CC(C)C)NC(=O)[C@H](CCN)NC1=O)[C@@H](C)O | Escherichia coli | daily serial passaging | ATCC 8739 | highest sub-MIC, 10 days | reference: initial MIC | MIC fold change | 1.95 |
| COc1c(NC(=O)c2ccc(NC(=O)c3ccc(NC(=O)[C@H](Cc4c[nH]nn4)NC(=O)c4ccc(NC(=O)/C(C)=C/c5ccc(O)cc5)cc4)cc3)c(OC)c2O)ccc(C(=O)O)c1O | Mycolicibacterium phlei | microbial growth, broth dilution | DSM750 |  |  | MIC | 4 µg/mL (≈ 4.52 µM) |
| Fc1cccc(COc2ccc(Nc3ncnc4ccc(-c5cccc(-n6cccn6)c5)cc34)cc2Cl)c1 | Plasmodium falciparum | parasite growth, SYBR Green fluorescence | C235 (TM91C235), drug-resistant |  |  | EC50 | > 15000 nM |
| Cc1cc(Oc2nc(N3CC[C@@H](c4ccncc4)C3)ncc2F)[nH]n1 | Mycobacterium tuberculosis | OD | H37Rv PurF CRISPRi knockdown | 0.000488 µM, added: anhydrotetracycline low |  | normalised growth | 98% and 100% and 99% |
| C#CCN1C(=O)C(CC#C)(C(=O)OCC)Oc2ccccc21 (stereo not drawn) | HaCaT | cell growth or viability, CCK-8 |  | 100 µM, 72 h |  | inhibition | 1.21% |
| O=S(=O)(c1ccc(-c2ccc3ncnc(Nc4ccc(OCc5ccc(C(F)(F)F)c(F)c5)c(Cl)c4)c3c2)cc1)N1CCOCC1 | Plasmodium falciparum | parasite growth, SYBR Green fluorescence | W2, drug-resistant |  |  | EC50 | 1100 nM |
| C=CCN1C(=O)C(CC=C)(C(=O)OCC)Oc2cc(F)ccc21 (stereo not drawn) | Arabidopsis thaliana |  | Col-0, seed germination, dark | 50 µg/mL, 7 days, 22 °C |  | stem length inhibition | 95.7% |
| Cc1cc(C(=O)Nc2nc3cccc(C)c3n2[C@H]2CCCCN(C(=O)/C=C/CN(C)C)C2)ccn1 | Trypanosoma brucei brucei |  | 2T1 parental | 10 x EC50, 36 h | reference: time 0 h | cell growth | 18.7% and 16.7% and 20% |
| NNC(=O)c1ccccc1 |  | hydrazine ligation kinetics, absorbance |  | concentration not given, 15 s, added: 2-formylphenylboronic acid |  | normalised absorbance | 0.518 |
| CCN(Cc1ccccc1)C(=O)CCc1nc(CN2CCN(C(=O)Cc3ccc(OC)c(OC)c3)CC2)no1 |  | current clamp | DRG neurons, naive rat | 3 µM |  | rheobase | 540 ± 137 pA |
| CCOC(=O)C1(Cc2cccc(C(C)C)c2)Oc2cc(F)ccc2N(Cc2cccc(C(C)C)c2)C1=O (stereo not drawn) | Arabidopsis thaliana | root length, petri dish germination | Col-0, 1/2 MS medium | 50 µg/mL, 7 days, 22 °C, dark |  | inhibition | 32.5% |
| COc1ccccc1-c1n[nH]c2nc(NC3CCN(C(=O)Cc4ccc(F)cc4F)CC3)ncc12 |  | bead binding, competition bead pull-down, item: LINJ.35.4540 | Leishmania donovani extract | 10 µM | reference: vehicle | relative abundance | 0.94 |
| O=C(O)c1ccc(-c2nc(-c3ccccc3Cl)c3sccn23)cc1 | CD34+ hematopoietic stem cells |  |  | 10 µM, day 0, without TPO |  | CD41-positive cell number | 1100 |
| O=C(c1ccc(-c2ccc3ncnc(Nc4ccc(OCc5cccc(F)c5)c(Cl)c4)c3c2)cc1)N1CCCCC1 | Plasmodium falciparum | parasite growth, SYBR Green fluorescence | C235 (TM91C235), drug-resistant |  |  | EC50 | 360 nM |
| CC(C)(C)C(=O)OCOP(=O)(OCOC(=O)C(C)(C)C)C1CCCN(O)C1=O (stereo not drawn) | HT-29 |  |  |  |  | GI50 | 335 nM |
| CCOC(=O)C1(Cc2ccccc2F)Oc2cc(F)ccc2N(Cc2ccccc2F)C1=O (stereo not drawn) | Arabidopsis thaliana | root length, petri dish germination | Col-0, 1/2 MS medium | 200 µg/mL, 7 days, 22 °C, dark |  | inhibition | 74.8% |
| C1=[N+]2CCCC[N+]3=Cc4ccc5[n]4[Au-]23[n]2c1ccc2-c1nc2ccccc2nc1-5.F[P-](F)(F)(F)(F)F | IGROV-1 |  |  | NCI60 five-dose screen |  | IC50 | 4700 nM |
| Cc1ccc(N2CC3CC(C2)N3C)cc1C(=O)NC1(c2ccc3c4c(cccc24)C(=O)N3C)CC1 | human coronavirus 229E | viral replication | Huh-7 | 0.75 µM |  | inhibition | 20% |
| COc1ccccc1-c1ccncc1C(=O)Nc1nnc(OCc2ccc(Cl)cc2)s1 | RPE-1 BRCA1 WT parental |  |  | 0.125 µM, run 1 | reference: untreated | colony survival | 94.4% |
